{"data": "Measurements from different studies", "note": "Every numbered part comes from another study and shows a few of its results, in no order. Substitutions count along the parent as printed.", "chain of UniProt P41143 (whole entry, looked up)": "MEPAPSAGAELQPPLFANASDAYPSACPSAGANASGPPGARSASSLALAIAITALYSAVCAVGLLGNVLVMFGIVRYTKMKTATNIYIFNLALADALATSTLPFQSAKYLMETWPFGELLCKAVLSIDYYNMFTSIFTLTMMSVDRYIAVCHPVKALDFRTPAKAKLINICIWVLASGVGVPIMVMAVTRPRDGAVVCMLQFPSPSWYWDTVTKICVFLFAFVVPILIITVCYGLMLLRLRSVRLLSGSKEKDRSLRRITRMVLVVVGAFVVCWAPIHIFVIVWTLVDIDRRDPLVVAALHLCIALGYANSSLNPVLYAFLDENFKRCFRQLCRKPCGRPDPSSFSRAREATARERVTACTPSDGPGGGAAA"}
{"data": "Series 1", "target": "CCNA2, cyclin fold, Cln2 fusion (human)", "method": "yeast growth competition, sequencing", "matrix": "yeast", "notes": "strong parent motif", "relative to": "not given", "direction": "higher = stronger binding", "starting sequence": "viral docking peptide; TSVRRALFTGGSD; partner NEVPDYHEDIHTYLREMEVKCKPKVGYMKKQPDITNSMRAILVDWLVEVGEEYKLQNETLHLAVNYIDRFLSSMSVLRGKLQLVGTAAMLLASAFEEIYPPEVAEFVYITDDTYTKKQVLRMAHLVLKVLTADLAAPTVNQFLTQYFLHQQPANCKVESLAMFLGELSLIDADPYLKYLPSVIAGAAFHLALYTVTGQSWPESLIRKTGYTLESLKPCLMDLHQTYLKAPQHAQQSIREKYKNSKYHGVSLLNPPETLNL"}
{"Change": "T9E", "normalised enrichment score": 5.75}
{"Change": "R5G", "normalised enrichment score": 0.336}
{"Change": "G10N", "normalised enrichment score": 6.34}
{"Change": "G10T", "normalised enrichment score": 6.16}
{"Change": "V3Y", "normalised enrichment score": 4.01}
{"Change": "R5S", "normalised enrichment score": 0.409}
{"Change": "R4L", "normalised enrichment score": 1.18}
{"Change": "G11L", "normalised enrichment score": 6.18}
{"Change": "G11S", "normalised enrichment score": 6.29}
{"Change": "S12T", "normalised enrichment score": 6.3}
{"Change": "R5Q", "normalised enrichment score": 1.67}
{"Change": "V3F", "normalised enrichment score": 4.93}
{"Change": "G10R", "normalised enrichment score": 6.12}
{"Change": "T9L", "normalised enrichment score": 6.18}
{"Change": "F8T", "normalised enrichment score": 0.0408}
{"Change": "T9F", "normalised enrichment score": 6.68}
{"Change": "S12R", "normalised enrichment score": 6.23}
{"Change": "G10C", "normalised enrichment score": 6.28}
{"Change": "V3C", "normalised enrichment score": 6.14}
{"Change": "A6D", "normalised enrichment score": 1.87}
{"Change": "S12L", "normalised enrichment score": 5.87}
{"Change": "A6K", "normalised enrichment score": 6.16}
{"Change": "A6P", "normalised enrichment score": 3.46}
{"Change": "A6L", "normalised enrichment score": 3.95}
{"Change": "R4A", "normalised enrichment score": 4.28}
{"data": "Series 2", "target": "Krueppel-like factor 3, full length (KLF3, Homo sapiens, UniProt P57682, residues 1-345)", "method": "protein-binding microarray", "form": "hairpin DNA", "matrix": "in vitro", "tested at": "not given", "notes": "whole hairpin DNA, median over replicate spots", "relative to": "not given", "direction": "higher = stronger binding", "constant ends, left off below": "GAGGCCG … CGGCCTCACACTC", "chain of UniProt P57682 (whole entry, looked up)": "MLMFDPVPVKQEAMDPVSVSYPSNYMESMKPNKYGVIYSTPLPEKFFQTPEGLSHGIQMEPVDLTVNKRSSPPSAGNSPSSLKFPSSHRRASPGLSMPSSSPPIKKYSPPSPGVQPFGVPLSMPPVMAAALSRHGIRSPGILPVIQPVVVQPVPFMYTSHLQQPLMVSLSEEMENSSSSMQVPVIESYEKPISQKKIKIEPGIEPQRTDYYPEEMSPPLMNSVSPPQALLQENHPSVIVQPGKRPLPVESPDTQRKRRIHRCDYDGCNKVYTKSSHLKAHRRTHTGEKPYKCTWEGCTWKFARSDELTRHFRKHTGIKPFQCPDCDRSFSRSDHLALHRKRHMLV"}
{"Strand": "ACCACGCCCAGCCTCCTGGCTGGGCGTGGT (5mC at 38)", "median fluorescence": "9670 a.u."}
{"Strand": "GCCACGCCCAGCCTCCTGGCTGGGCGTGGC", "median fluorescence": "9450 a.u."}
{"Strand": "ACCACGCCCAGCCTCCTGGCTGGGCGTGGT", "median fluorescence": "9860 a.u."}
{"Strand": "ACCGCGCGCAGCCTCCTGGCTGCGCGCGGT", "median fluorescence": "10800 a.u."}
{"Strand": "ACCCCGCCCAGCCTCCTGGCTGGGCGGGGT (5mC at 11)", "median fluorescence": "8720 a.u."}
{"Strand": "ACAGCGCCCAGCCTCCTGGCTGGGCGCTGT", "median fluorescence": "8560 a.u."}
{"Strand": "ACCGGGCCCAGCCTCCTGGCTGGGCCCGGT (5mC at 33)", "median fluorescence": "7880 a.u."}
{"Strand": "ACCACGCGCAGCCTCCTGGCTGCGCGTGGT", "median fluorescence": "22500 a.u."}
{"data": "Series 3", "target": "RNA binding protein fox-1 homolog 2, RRM domain, GST-SBP tag (RBFOX2, Homo sapiens, UniProt O43251-10, residues 100-194)", "method": "RNA Bind-n-Seq", "form": "RNA", "matrix": "in vitro", "tested at": "365 nM", "notes": "natural RNA segment, single round, ends assumed", "relative to": "no-protein control", "direction": "higher = stronger binding", "constant ends, left off below": "GGGAGUUCUACAGUCCGACGAUC … UGGAAUUCUCGGGUGCCAA", "Target sequence (chain)": "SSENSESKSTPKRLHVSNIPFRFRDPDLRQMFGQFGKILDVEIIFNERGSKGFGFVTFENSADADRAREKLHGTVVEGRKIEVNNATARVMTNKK"}
{"Strand": "UGUGUUCUUCCAGCCAGCCUUGGGCUUUGGGCCCAGCCAGGCUCACACCCAGAAAGGGGUGUCCUGACACCCCACCCAGGCCUUGAGGACGGUGCGGUAAUGACUGCCCA", "RBNS enrichment (R)": 0.281}
{"Strand": "AUUCGAGACAGUGCUUCUGGAGGAGCCAUUGGAAAGACUGGAGAAGAUUCUAAUGGAUAGGAUUUAGAGAUGUGUUCUGUGUUCUUGACCAGUGAAGUAUGCUCUUGGGU", "RBNS enrichment (R)": 1.04}
{"Strand": "UGUGCCCAGCUGUCACUCACUCAGCAGCUUCCUUGCAGCAGAGCAGGGCUGAGGGGAAGGGGCUAUGAAUGUUUGUAUACAUGUUCACAGGGCACGGAAAAUCUUAUGCU", "RBNS enrichment (R)": 0.571}
{"Strand": "CUUUGUUCUGGGUCCUUUCGGGAGGGCUGAUGGGCAGCACAGGAGGCCCGUCCUCGGGGGGCUGCGCACAUCACGCUCCUUGCCGGGCGUCCGGCACAGCUGCGGUCACC", "RBNS enrichment (R)": 0.224}
{"Strand": "AAAGGCUUUCUUUCCAAUCCUUUAUAGCUUUGGAGACGCCUCCCCAAUUCCCCAGGGAAGGAAACUGUUGUGUCCAAUCCCCAUUAAAGACAAAUUGAUCAGUGCUUCCC", "RBNS enrichment (R)": 0.413}
{"Strand": "AAUGGGGCCAGCUGAUUAAAGAAAAAGAACCCCCACACAACAGGACUGUCAGGACAGAUUGAGUUAACCCCUCAAGCCAAGUCCCGGGUGUCAGGAACAGUUGUCCAUGC", "RBNS enrichment (R)": 0.569}
{"Strand": "AGUAAAAUGUAUAUAACUCUUACCUGUUGUCAUUCUUUUUCUUUUAAAUUUGUUGCUAAUCUCUGAUAAUGAAGAUUCUUACUCUGAUUCUCAGCUGAGCUGUGAGGGCU", "RBNS enrichment (R)": 0.987}
{"Strand": "CUCAUUCACUGCCAGACCCCACAUGGAGAGGCACCCAAAAGGAGAAGUUGACCAUUCCAUGUCUCAAGUAUGAGGACCCAGGGACCCCAGGGAAUCUGUUUUCUAUUUAC", "RBNS enrichment (R)": 0.413}
{"data": "Series 4", "target": "Probable WRKY transcription factor 33, N-terminal DNA-binding domain (WRKY33, Arabidopsis thaliana, UniProt Q8S8P5, residues 169-264)", "method": "DNA-protein interaction ELISA", "form": "double-stranded DNA, one strand shown", "matrix": "in vitro, bacterial lysate", "tested at": "not given", "notes": "whole dsDNA probe, crude lysate protein", "relative to": "highest signal in screen", "direction": "higher = stronger binding", "Construct (chain)": "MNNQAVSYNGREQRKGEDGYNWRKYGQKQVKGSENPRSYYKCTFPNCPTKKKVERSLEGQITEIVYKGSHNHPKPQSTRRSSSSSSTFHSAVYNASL"}
{"Strand": "AAAAAACCTTACTGTTGATTCTGGTTAAAA", "relative absorbance": "22.9 % of maximum"}
{"Strand": "AAAAAAACAGCTCGGTGCCACTGTGGAAAA", "relative absorbance": "22.3 % of maximum"}
{"Strand": "AAAAAAACCCGGCCGCCATGGTAGTAAAAA", "relative absorbance": "22.1 % of maximum"}
{"Strand": "AAAAAATCCTTTTCTCTTTCTGTTTCAAAA", "relative absorbance": "27.5 % of maximum"}
{"Strand": "AAAAAATTCTAACTTAGCCTATGTCCAAAA", "relative absorbance": "26.6 % of maximum"}
{"Strand": "AAAAAATCTGTTCTCGTTTCCCCTTCAAAA", "relative absorbance": "26.1 % of maximum"}
{"Strand": "AAAAAAATGGTGCCGCTGAGCAAATTAAAA", "relative absorbance": "19 % of maximum"}
{"Strand": "AAAAAAACCGATTACCATTTTTACTGAAAA", "relative absorbance": "24.8 % of maximum"}
{"data": "Single results of other studies"}
{"Compound": "N#CN1CC[C@@H](C(=O)Nc2nc3c(s2)CN(C(=O)CN=[N+]=[N-])CC3)C1", "target": "Delta-type opioid receptor (OPRD1, Homo sapiens, UniProt P41143)", "test": "binding, radioligand binding", "conditions": "10 µM", "quantity": "inhibition", "result": "4.07%"}
{"note": "Repeated from above (series 1):"}
{"Change": "A6D", "normalised enrichment score": 1.87}
{"Change": "S12L", "normalised enrichment score": 5.87}
{"Change": "V3F", "normalised enrichment score": 4.93}
{"Change": "S12T", "normalised enrichment score": 6.3}
{"Change": "F8T", "normalised enrichment score": 0.0408}
{"Change": "A6L", "normalised enrichment score": 3.95}
{"Change": "T9F", "normalised enrichment score": 6.68}
{"Change": "R4A", "normalised enrichment score": 4.28}
